Measurements pooled from the literature.
Parts stem from different laboratories: compare values within a part only. Substitutions count along the parent as printed.

Block 1
Target: CCND1, cyclin fold, Cln2 fusion (human)
Method: yeast growth competition, sequencing
Matrix: yeast
Notes: weak parent motif
Reference: not given
Reading: higher = stronger binding
Quantity: normalised enrichment score
Starting sequence: viral docking peptide; TSVRRALFTGGSD
Variant = TSVRRALFQGGSD [T9Q]; result = 0.47
Variant = TSVRRALFTCGSD [G10C]; result = 0.22
Variant = TSVRRRLFTGGSD [A6R]; result = 0.44
Variant = TSVRRALFTMGSD [G10M]; result = 0.0959
Variant = TSVRRALFTGDSD [G11D]; result = 0.83
Variant = TSVRRALFAGGSD [T9A]; result = 0.0796

Block 2
Target: TAR DNA-binding protein 43, full length, His tag (TARDBP, Homo sapiens, UniProt Q13148, residues 1-414)
Method: RNA Bind-n-Seq
Molecule type: RNA
Matrix: in vitro
Concentration: 20 nM
Notes: 6-mer, flanks averaged, single round
Together with: 150 mM LiCl
Reference: input library
Reading: higher = stronger binding
Quantity: 6-mer enrichment (R)
Oligonucleotide = CGCUUC; result = 0.866
Oligonucleotide = CGCUAG; result = 0.89
Oligonucleotide = CAUAUU; result = 0.979
Oligonucleotide = GUAAGG; result = 1.11
Oligonucleotide = CAGAGU; result = 0.929
Oligonucleotide = ACAGCU; result = 0.816
Oligonucleotide = GCAUUC; result = 0.839
Oligonucleotide = ACGAAG; result = 0.836

Block 3
Target: Phosphate system positive regulatory protein PHO4, full length, GST-tagged (PHO4, Saccharomyces cerevisiae, UniProt P07270, residues 1-312)
Method: competition protein-binding microarray
Molecule type: double-stranded DNA, one strand shown
Matrix: in vitro
Concentration: 2 µM
Notes: whole 60-bp probe, lowest competitor level
Together with: Cbf1 competitor, 0.05 µM
Reading: higher = stronger binding
Quantity: fluorescence intensity
Shared flanks, not repeated: … GTCTTGATTCGCTTGACGCTGCTG
Target sequence (chain): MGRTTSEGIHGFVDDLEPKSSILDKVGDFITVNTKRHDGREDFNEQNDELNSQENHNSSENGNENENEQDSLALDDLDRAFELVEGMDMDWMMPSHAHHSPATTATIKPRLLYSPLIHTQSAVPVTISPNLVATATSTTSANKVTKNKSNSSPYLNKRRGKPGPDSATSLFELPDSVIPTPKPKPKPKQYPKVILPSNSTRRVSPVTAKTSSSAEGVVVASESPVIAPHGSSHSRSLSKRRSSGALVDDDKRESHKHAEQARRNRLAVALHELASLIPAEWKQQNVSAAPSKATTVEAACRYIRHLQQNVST
Oligonucleotide = TGTATAAGGACTACCCACGTGAGACCGTTTCCAAAC; result = 16000 a.u.
Oligonucleotide = CTTTCCCGATCTTGTCACGTTACTTTAGCACATTTG; result = 7300 a.u.
Oligonucleotide = ACCCTTACCGGCCTTGACGTGGGTAACAGCGGTAGC; result = 4570 a.u.
Oligonucleotide = CTTCTGTAAATTTGCTTGGTGGGTGGACGCGCCCCG; result = 3870 a.u.
Oligonucleotide = CTAACGAAGGTTTGTAACGTGGGTGACAAGCCAAGT; result = 9450 a.u.
Oligonucleotide = TCGGACTAGACGCTGGGCGTGCATCGCCAGTGAAAA; result = 6570 a.u.
Oligonucleotide = AACTTCGAAATTGGGAGCGTGGGACCAGAAACTTCC; result = 8160 a.u.
Oligonucleotide = CTTTCCCGATCTTGCGGGGTGGGTGTAGCACATTTG; result = 5170 a.u.

Block 4
Target: HLA class I histocompatibility antigen, C alpha chain, allele C*04:01 (Homo sapiens, UniProt P10321)
Observed: peptide-MHC binding
Molecule type: peptide
Concentration: concentration not given
Quantity: binding
Sequence = RQMRASAPL; result = inactive
Sequence = RLKFSLSYK; result = inactive
Sequence = SLYSGFPSL; result = inactive
Sequence = RYAYTSVEF; result = inactive
Sequence = FPYAIRLVA; result = inactive
Sequence = YVDIYAASV; result = inactive
Sequence = YTFTSLFSL; result = inactive
Sequence = YTLNDAPYI; result = inactive
Sequence = AENQLFHST; result = inactive
Sequence = MTHPQSEAA; result = inactive
Sequence = LEDGIYGIF; result = inactive
Sequence = FYYNAFHWAI; result = inactive
Sequence = FQPQNGQYI; result = inactive
Sequence = VYTNAIQYV; result = inactive
Sequence = YIDISDVKV; result = inactive
Sequence = TTIGEWAFW; result = inactive
Sequence = YSFSRAYTL; result = inactive
Sequence = MMYTVSLGK; result = inactive
Sequence = AYPELACAV; result = inactive
Sequence = YYWPRPRRY; result = inactive
Sequence = MPYAAHDPI; result = inactive
Sequence = NTDSSLQSM; result = inactive
Sequence = MVIKWIHER; result = inactive
Sequence = WMRWGGWPF; result = inactive
Sequence = RPRRASSPF; result = inactive

Block 5
Target: Sal-like protein 4, full length isoform B (SALL4, Homo sapiens, UniProt Q9UJQ4-2, residues 1-616)
Method: universal PBM
Molecule type: double-stranded DNA, one strand shown
Matrix: in vitro
Concentration: not given
Notes: 8-mer, flanks averaged, mean of replicates
Reading: higher = stronger binding
Quantity: E-score
Target sequence (chain): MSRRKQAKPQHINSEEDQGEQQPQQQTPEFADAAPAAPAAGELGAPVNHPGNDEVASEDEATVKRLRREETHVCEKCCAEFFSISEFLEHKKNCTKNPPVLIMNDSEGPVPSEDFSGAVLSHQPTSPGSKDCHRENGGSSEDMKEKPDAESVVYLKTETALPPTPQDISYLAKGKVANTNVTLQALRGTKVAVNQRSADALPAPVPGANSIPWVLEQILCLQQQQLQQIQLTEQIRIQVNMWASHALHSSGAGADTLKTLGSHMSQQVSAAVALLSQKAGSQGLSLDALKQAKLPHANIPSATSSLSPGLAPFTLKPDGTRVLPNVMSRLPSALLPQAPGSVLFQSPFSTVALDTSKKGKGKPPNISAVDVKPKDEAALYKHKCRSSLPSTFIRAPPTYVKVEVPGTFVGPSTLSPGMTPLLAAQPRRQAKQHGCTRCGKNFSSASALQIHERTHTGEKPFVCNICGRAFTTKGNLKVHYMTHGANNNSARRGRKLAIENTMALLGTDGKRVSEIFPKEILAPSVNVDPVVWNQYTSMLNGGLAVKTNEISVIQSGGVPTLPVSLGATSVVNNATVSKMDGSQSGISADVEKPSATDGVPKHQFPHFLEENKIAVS
Oligonucleotide = AGGCTTTC; result = -0.0373
Oligonucleotide = TACATCAA; result = 0.211
Oligonucleotide = CTCCTGAC; result = -0.17
Oligonucleotide = CTACTACC; result = 0.0844
Oligonucleotide = CCAGTAAC; result = -0.0565
Oligonucleotide = CCCCGGTC; result = -0.327
Oligonucleotide = AAATTAGG; result = 0.239
Oligonucleotide = TCACAGAA; result = 0.152

Single results of other studies
SMILES = C[C@]12C=CC(=O)C=C1CCC1C2CC[C@]2(C)C(=O)CCC12 (some centres unmarked); system = mouse, microsomes or S9; setting = 2 µM, 0.5 h; quantity = remaining compound; result = 15.5%

Excerpt of the above (block 5):
Oligonucleotide = AGGCTTTC; result = -0.0373
Oligonucleotide = TACATCAA; result = 0.211
Oligonucleotide = CTCCTGAC; result = -0.17
Oligonucleotide = CTACTACC; result = 0.0844
Oligonucleotide = CCAGTAAC; result = -0.0565
Oligonucleotide = CCCCGGTC; result = -0.327
